Measured values of several laboratories.
Compare with care: the assays were run in different laboratories. “And” joins repeats or separate records; there may be more than shown.
CES2: Cocaine esterase (CES2, Homo sapiens, UniProt O00748)
UniProt O00748, sequence (whole entry, looked up): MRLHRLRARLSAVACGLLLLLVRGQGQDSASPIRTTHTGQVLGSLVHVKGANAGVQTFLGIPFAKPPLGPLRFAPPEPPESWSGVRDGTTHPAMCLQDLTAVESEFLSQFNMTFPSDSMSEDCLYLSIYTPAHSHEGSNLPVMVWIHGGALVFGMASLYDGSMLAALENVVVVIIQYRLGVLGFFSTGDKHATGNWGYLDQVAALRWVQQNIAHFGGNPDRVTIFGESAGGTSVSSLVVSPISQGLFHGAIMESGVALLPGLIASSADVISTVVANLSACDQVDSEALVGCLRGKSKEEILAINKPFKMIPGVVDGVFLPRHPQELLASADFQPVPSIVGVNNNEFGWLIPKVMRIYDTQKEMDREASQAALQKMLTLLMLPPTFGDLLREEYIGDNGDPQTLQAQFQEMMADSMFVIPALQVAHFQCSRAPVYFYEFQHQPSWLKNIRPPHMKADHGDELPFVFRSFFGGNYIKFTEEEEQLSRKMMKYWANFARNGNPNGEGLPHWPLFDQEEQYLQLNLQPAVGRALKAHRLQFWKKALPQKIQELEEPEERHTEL
HDAC8: Histone deacetylase 8 (HDAC8, Homo sapiens, UniProt Q9BY41)
UniProt Q9BY41, sequence (whole entry, looked up): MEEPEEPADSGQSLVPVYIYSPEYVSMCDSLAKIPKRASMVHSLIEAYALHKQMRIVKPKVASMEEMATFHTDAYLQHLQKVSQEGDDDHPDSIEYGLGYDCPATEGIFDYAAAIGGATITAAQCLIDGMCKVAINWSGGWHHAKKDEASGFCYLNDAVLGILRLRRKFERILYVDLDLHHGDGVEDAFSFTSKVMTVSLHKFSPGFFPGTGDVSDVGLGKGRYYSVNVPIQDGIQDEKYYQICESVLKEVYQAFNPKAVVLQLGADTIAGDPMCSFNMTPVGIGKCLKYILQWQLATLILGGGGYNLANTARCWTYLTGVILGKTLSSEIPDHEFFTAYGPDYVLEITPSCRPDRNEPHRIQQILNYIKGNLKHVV
PIK3CB: Phosphatidylinositol 4,5-bisphosphate 3-kinase catalytic subunit beta isoform (PIK3CB, Homo sapiens, UniProt P42338)
UniProt P42338, sequence (whole entry, looked up): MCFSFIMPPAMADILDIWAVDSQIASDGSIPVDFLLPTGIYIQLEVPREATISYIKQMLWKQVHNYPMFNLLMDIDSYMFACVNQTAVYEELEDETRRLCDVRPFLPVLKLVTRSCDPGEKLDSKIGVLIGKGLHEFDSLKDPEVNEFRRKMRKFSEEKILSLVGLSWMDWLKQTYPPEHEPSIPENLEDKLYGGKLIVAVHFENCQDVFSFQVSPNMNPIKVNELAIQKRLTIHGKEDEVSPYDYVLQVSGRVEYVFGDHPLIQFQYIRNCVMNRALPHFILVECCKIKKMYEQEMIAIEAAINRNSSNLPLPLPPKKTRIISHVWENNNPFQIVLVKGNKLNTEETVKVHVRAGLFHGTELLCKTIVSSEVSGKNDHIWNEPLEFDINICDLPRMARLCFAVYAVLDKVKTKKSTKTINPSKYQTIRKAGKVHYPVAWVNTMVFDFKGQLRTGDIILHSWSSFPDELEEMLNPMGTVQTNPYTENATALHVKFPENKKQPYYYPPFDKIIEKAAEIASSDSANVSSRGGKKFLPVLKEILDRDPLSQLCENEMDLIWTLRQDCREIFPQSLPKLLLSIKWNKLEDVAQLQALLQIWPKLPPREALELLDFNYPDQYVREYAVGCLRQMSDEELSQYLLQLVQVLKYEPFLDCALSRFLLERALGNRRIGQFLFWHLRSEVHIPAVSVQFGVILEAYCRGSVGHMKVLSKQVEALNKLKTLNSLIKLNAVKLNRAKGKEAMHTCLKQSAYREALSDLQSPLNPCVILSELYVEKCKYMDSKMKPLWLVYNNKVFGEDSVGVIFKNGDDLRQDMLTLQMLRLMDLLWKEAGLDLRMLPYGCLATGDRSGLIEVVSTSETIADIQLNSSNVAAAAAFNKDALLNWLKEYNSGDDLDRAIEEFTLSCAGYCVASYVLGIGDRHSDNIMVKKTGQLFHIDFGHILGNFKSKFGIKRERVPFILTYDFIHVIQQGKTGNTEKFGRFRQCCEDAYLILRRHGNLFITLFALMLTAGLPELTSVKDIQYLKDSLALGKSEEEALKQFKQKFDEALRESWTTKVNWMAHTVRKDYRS
DRD3: D(3) dopamine receptor (DRD3, Homo sapiens, UniProt P35462)
UniProt P35462, sequence (whole entry, looked up): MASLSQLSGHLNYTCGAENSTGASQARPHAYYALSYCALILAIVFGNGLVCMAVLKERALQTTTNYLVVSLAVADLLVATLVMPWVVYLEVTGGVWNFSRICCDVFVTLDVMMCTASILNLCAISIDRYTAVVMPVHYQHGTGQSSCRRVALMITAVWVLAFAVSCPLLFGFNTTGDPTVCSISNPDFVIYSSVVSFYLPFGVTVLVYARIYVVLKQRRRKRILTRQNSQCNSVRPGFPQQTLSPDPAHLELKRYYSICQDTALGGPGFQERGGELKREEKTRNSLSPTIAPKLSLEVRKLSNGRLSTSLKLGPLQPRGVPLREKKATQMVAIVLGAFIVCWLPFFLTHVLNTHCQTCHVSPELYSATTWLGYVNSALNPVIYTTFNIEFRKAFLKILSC
PARP2: Poly [ADP-ribose] polymerase 2 (PARP2, Homo sapiens, UniProt Q9UGN5)
UniProt Q9UGN5, sequence (whole entry, looked up): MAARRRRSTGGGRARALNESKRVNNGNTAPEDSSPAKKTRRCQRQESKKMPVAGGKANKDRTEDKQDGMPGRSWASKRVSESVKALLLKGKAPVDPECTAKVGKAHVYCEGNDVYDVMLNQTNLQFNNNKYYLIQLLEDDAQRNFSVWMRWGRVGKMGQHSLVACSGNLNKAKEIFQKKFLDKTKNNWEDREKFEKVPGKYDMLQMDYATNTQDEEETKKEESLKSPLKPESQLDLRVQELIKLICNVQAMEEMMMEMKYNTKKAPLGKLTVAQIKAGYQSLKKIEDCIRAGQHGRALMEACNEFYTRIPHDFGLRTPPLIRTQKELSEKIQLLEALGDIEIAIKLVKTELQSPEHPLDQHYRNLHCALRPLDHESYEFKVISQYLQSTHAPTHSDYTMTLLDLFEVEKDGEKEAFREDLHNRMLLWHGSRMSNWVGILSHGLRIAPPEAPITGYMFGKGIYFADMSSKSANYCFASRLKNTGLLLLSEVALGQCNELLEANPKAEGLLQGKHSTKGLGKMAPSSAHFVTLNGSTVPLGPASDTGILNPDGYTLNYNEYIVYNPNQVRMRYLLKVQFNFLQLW
HDAC6: Protein deacetylase HDAC6 (HDAC6, Homo sapiens, UniProt Q9UBN7)
UniProt Q9UBN7, sequence (whole entry, looked up): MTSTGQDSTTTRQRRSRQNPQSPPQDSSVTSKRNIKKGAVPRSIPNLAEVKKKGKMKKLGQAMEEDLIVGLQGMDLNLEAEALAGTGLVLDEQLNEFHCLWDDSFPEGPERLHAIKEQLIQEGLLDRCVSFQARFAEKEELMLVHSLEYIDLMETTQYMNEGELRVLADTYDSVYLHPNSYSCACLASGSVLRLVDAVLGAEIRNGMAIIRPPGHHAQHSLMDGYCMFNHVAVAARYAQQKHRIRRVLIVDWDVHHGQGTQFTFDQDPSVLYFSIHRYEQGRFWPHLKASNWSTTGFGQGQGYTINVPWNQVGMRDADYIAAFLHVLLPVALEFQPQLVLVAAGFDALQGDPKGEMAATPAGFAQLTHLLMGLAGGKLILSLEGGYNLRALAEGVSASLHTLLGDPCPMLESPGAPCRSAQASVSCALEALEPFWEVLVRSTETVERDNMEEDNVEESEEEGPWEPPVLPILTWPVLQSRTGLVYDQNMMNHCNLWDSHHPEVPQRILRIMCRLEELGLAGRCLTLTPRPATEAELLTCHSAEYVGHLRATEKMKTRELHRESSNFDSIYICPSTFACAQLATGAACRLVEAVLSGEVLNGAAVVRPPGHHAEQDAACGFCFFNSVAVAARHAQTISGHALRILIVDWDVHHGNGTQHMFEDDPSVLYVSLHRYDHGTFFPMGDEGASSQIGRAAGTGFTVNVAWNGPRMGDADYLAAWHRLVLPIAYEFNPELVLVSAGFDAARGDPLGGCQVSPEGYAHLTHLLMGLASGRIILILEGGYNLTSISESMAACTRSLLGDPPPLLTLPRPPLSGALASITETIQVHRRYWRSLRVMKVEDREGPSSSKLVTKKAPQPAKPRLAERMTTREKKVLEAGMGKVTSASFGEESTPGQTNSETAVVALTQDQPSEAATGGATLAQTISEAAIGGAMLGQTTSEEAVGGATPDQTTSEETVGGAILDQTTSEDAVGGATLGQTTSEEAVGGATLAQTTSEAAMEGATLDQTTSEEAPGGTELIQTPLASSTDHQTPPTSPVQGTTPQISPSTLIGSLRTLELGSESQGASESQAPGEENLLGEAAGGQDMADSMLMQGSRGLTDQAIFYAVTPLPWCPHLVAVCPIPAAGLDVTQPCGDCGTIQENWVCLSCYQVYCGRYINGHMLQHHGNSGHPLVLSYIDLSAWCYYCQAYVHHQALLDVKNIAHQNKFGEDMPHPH
UniProt P05979, sequence (whole entry, looked up): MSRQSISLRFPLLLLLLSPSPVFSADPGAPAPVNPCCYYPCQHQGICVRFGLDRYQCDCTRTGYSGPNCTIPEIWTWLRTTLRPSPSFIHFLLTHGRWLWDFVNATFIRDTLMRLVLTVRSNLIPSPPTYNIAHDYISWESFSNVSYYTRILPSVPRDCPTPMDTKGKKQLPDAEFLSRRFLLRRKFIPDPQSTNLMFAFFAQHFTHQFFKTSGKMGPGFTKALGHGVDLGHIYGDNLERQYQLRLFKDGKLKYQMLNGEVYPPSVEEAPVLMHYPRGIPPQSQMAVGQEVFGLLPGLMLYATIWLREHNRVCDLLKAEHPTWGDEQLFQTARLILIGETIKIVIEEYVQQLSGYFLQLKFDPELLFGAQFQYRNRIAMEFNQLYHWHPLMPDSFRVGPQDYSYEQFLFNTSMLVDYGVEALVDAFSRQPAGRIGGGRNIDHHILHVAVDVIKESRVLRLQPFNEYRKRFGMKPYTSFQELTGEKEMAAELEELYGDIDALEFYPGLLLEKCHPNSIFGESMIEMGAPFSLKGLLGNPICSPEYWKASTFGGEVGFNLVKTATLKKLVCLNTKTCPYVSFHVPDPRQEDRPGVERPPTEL

SMILES	target	test	system	setting	quantity	value
COc1cc(-c2cncc3c2CN(C)Cc2cc(N4CCNCC4)ccc2-3)cc(OC)c1OC	Serine/threonine-protein kinase Chk2 (CHEK2, Homo sapiens, UniProt O96017, I157T)	enzyme activity, inhibitor		1 µM	remaining activity	97%
C[C@H]1c2cccc(O)c2C(=O)C2=C(O)[C@]3(O)C(=O)C(C(N)=O)=C(O)[C@@H](N(C)C)[C@@H]3[C@@H](O)[C@@H]21	CES2	enzyme activity, inhibitor, fluorescence		with preincubation	IC50	> 100 µM
COc1nc(N)nc(N)c1OCCCOc1ccccc1CCC(=O)O	Dihydrofolate reductase (Mycobacterium avium, UniProt O30463)	enzyme activity, inhibitor			IC50	> 5 µM
COc1cc2c(cc1OC)C(=O)/C(=C/c1cccc(O)c1)C2	CES2	enzyme activity, inhibitor, fluorescence		with preincubation	IC50	3.92 µM
Cc1cc(OS(=O)(=O)Oc2ccc(C(F)(F)F)cc2)cc(C(=O)NO)c1	HDAC8	enzyme activity, inhibitor, fluorescence			IC50	4.52 µM
O=C(COC(=O)c1ccccc1Nc1cccc(C(F)(F)F)c1)NNS(=O)(=O)c1ccccc1	Prostaglandin G/H synthase 1 (PTGS1, Ovis aries, UniProt P05979)	enzyme activity, inhibitor			IC50	15 to 26 µM and 25.3 µM
COc1cc(N=C2C(=O)Nc3ccccc32)cc(OC)c1	PIK3CB	enzyme activity, inhibitor, ADP detection			IC50	0.0864 µM
CCCN(CCC)S(=O)(=O)c1ccc(C(=O)O)cc1	Taste receptor type 2 member 14 (TAS2R14, Homo sapiens, UniProt Q9NYV8, S65A)	inositol phosphate, antagonist, TR-FRET			IC50	2300 µM
NC(=O)c1ccc(C(=O)NOCc2ccc(Cl)cc2)cc1	NAD-dependent protein deacylase sirtuin-6 (SIRT6, Homo sapiens, UniProt Q8N6T7)	enzyme activity, inhibitor, fluorescence			IC50	8.01 µM
COc1ccc(C[C@H](NC(=O)[C@H](C)NC(=O)CN2CCOCC2)C(=O)N[C@@H](CC2CC3CCC2C3)C(=O)[C@@]2(C)CO2)cc1 (mixture of isomers)	Proteasome subunit beta type-8 (PSMB8, Homo sapiens, UniProt P28062)	enzyme activity, inhibitor		lysate	IC50	9.68 µM
Cc1[nH]c(C)c(S(=O)(=O)Nc2cc(Cl)cc(C(F)(F)F)c2)c1C(=O)N1CCC(F)(F)C1	DRD3	β-arrestin recruitment, antagonist			IC50	29 µM
CC(C)(C)c1ccc(OS(=O)(=O)Oc2cc(F)cc(C(=O)NO)c2)cc1	HDAC8	enzyme activity, inhibitor, fluorescence			IC50	9.5 µM
O=C1C(=Nc2ccccc2I)c2ccccc2N1Cc1ccc([N+](=O)[O-])cc1	PIK3CB	enzyme activity, inhibitor, ADP detection			IC50	0.0351 µM
O=c1ccc2c(OCCCCOc3ccc(O)cc3)c3ccoc3cc2o1	Potassium voltage-gated channel subfamily A member 3 (Kcna3, Mus musculus, UniProt P16390)	ion current, inhibitor, patch clamp			IC50	0.007 µM and 0.0065 µM
CCNC(=O)c1c(C)[nH]c(C)c1S(=O)(=O)Nc1ccc(C(F)(F)F)c(Cl)c1	DRD3	β-arrestin recruitment, antagonist			IC50	9.2 µM
CC(C)(C)c1ccc(Cn2nnc3c4ccc(F)cc4c(=O)[nH]c32)cc1	PARP2	enzyme activity, inhibitor			IC50	> 10 µM
CNc1ncc2c(/C=C/C(=O)N3CCC(OC)CC3)nn(Cc3cccc(C(F)(F)F)c3)c2n1	Dual specificity mitogen-activated protein kinase kinase 4 (MAP2K4, Homo sapiens, UniProt P45985)	enzyme activity, inhibitor, radiometric		1 µM	remaining activity	101%
CC(C)c1ccc(OS(=O)(=O)Oc2cccc(C(=O)NO)c2)cc1	HDAC6	enzyme activity, inhibitor, fluorescence			IC50	1.41 µM
Cc1ccc(NS(=O)(=O)c2c(C)[nH]c(C)c2C(=O)N2CCC(F)(F)C2)nc1Cl	DRD3	G protein activation, antagonist, BRET			IC50	16 µM
N#C[C@@]12C[C@@H]1[C@@H](n1cnc3c(N[C@@H](C4CCC4)C4CC4)nc(I)nc31)[C@H](O)[C@@H]2O	Cytochrome P450 1A2 (CYP1A2, Homo sapiens, UniProt P05177)	enzyme activity, inhibitor			IC50	> 20 µM and 46.5 µM
CCN(CC)CCNC(=O)c1c(C)[nH]c(/C=C2\C(=O)Nc3ccc(F)cc32)c1C	CES2	enzyme activity, inhibitor, fluorescence		with preincubation	IC50	52.4 µM

SMILES	target	test	system	setting	quantity	value
O=c1[nH]c2c(nnn2Cc2ccc(C(F)(F)F)cc2)c2ccc(F)cc12	Protein mono-ADP-ribosyltransferase PARP10 (PARP10, Homo sapiens, UniProt Q53GL7)	enzyme activity, inhibitor			IC50	> 10 µM
Cc1[nH]c(C)c(S(=O)(=O)Nc2ccc(C(F)(F)F)c(Cl)c2)c1C(=O)N1C[C@@H](F)[C@H](F)C1 (relative stereo)	DRD3	β-arrestin recruitment, antagonist			IC50	2.9 µM
COc1cc2c(cc1OC)C(=O)/C(=C/C1CCC1)C2	CES2	enzyme activity, inhibitor, fluorescence		with preincubation	IC50	15.5 µM
CCCN1CCC(c2cccc(S(C)(=O)=O)c2)CC1	Cytochrome P450 2D6 (CYP2D6, Homo sapiens, UniProt P10635)	enzyme activity, inhibitor	human, liver microsomes	pH 7.4	IC50	37 µM
O=C(NO)c1cc(F)cc(OS(=O)(=O)Oc2ccc(-n3ccnc3)cc2)c1	HDAC6	enzyme activity, inhibitor, fluorescence			IC50	0.101 µM
O=c1[nH]c2c(nnn2C2CCCCC2)c2ccccc12	PARP2	enzyme activity, inhibitor			IC50	> 10 µM
CC(=O)[C@H]1CC[C@H]2[C@@H]3CCC4=CC(=O)CC[C@]4(C)[C@H]3CC[C@]12C	CES2	enzyme activity, inhibitor, fluorescence		with preincubation	IC50	> 100 µM
COc1ccc(OS(=O)(=O)Oc2cccc(C(=O)NO)c2)cc1OC	Histone deacetylase 1 (HDAC1, Homo sapiens, UniProt Q13547)	enzyme activity, inhibitor, fluorescence			IC50	2.37 µM
C=CC(=O)N1CCC(COCC(=O)N2CCN(c3nc(-c4cnc(N)nc4C(F)F)nc(N4CCOC[C@@H]4C)n3)CC2)CC1	Serine/threonine-protein kinase Sgk1 (SGK1, Homo sapiens, UniProt O00141)	binding, competition with immobilised ligand		1 µM	remaining binding	91%
Cc1[nH]c(C)c(S(=O)(=O)Nc2ccc(C(=O)C3CC3)c(Cl)c2)c1C(=O)N1CCC(F)(F)C1	DRD3	G protein activation, antagonist, BRET			IC50	6.6 µM
Cc1cccc(N=C2C(=O)N(Cc3ccccc3)c3ccccc32)c1	PIK3CB	enzyme activity, inhibitor, ADP detection			IC50	0.0146 µM
O=C(NO)c1cccc(OS(=O)(=O)Oc2cccc(-c3ccccc3)c2)c1	HDAC6	enzyme activity, inhibitor, fluorescence			IC50	0.665 µM
O=c1[nH]c2c(nnn2Cc2ccccc2C(F)(F)F)c2ccccc12	PARP2	enzyme activity, inhibitor			IC50	> 10 µM
Cc1[nH]c(C)c(S(=O)(=O)Nc2ccc(C(C)C)cc2)c1C(=O)N1CCCC1	DRD3	G protein activation, antagonist, BRET			IC50	12 µM
O=C(NO)c1cccc(OS(=O)(=O)Oc2ccc3ccccc3c2)c1	HDAC8	enzyme activity, inhibitor, fluorescence			IC50	0.083 µM
Cc1[nH]c(C)c(S(=O)(=O)Nc2ccc(C(F)(F)F)c(Cl)c2)c1C(=O)N1CCC(F)(F)C1	DRD3	β-arrestin recruitment, antagonist			IC50	2.5 µM
Cc1nc(Nc2ccc3c(c2)/C(=C/c2ccccc2C)C(=O)N3C)c2ccccc2n1	PIK3CB	enzyme activity, inhibitor, ADP detection			IC50	0.146 µM
Cc1ccc(NS(=O)(=O)c2c(C)[nH]c(C)c2C(=O)N2CCCC2C)cc1Cl (stereo not drawn)	DRD3	G protein activation, antagonist, BRET			IC50	6.1 µM
CCOC(=O)c1ccccc1-c1c2ccc(=O)cc-2oc2cc(O)ccc12	Polyunsaturated fatty acid lipoxygenase ALOX15 (ALOX15, Homo sapiens, UniProt P16050)	enzyme activity, inhibitor, absorbance			IC50	23.8 µM
O=C(NO)c1cncc(OS(=O)(=O)Oc2ccc(C(F)(F)F)cc2)c1	HDAC8	enzyme activity, inhibitor, fluorescence			IC50	1.2 µM
COC(=O)N[C@H](C(=O)N[C@@H](Cc1ccccc1)[C@@H](O)CN(Cc1ccc(-c2ccccn2)cc1)NC(=O)[C@@H](NC(=O)OC)C(C)(C)C)C(C)(C)C	CES2	enzyme activity, inhibitor, fluorescence		with preincubation	IC50	> 100 µM

Repeated from above:
SMILES	target	test	system	setting	quantity	value
CC(C)c1ccc(OS(=O)(=O)Oc2cccc(C(=O)NO)c2)cc1	HDAC6	enzyme activity, inhibitor, fluorescence			IC50	1.41 µM
Cc1ccc(NS(=O)(=O)c2c(C)[nH]c(C)c2C(=O)N2CCC(F)(F)C2)nc1Cl	DRD3	G protein activation, antagonist, BRET			IC50	16 µM
N#C[C@@]12C[C@@H]1[C@@H](n1cnc3c(N[C@@H](C4CCC4)C4CC4)nc(I)nc31)[C@H](O)[C@@H]2O	Cytochrome P450 1A2 (CYP1A2, Homo sapiens, UniProt P05177)	enzyme activity, inhibitor			IC50	> 20 µM and 46.5 µM
CCN(CC)CCNC(=O)c1c(C)[nH]c(/C=C2\C(=O)Nc3ccc(F)cc32)c1C	CES2	enzyme activity, inhibitor, fluorescence		with preincubation	IC50	52.4 µM
O=c1[nH]c2c(nnn2Cc2ccc(C(F)(F)F)cc2)c2ccc(F)cc12	Protein mono-ADP-ribosyltransferase PARP10 (PARP10, Homo sapiens, UniProt Q53GL7)	enzyme activity, inhibitor			IC50	> 10 µM
Cc1[nH]c(C)c(S(=O)(=O)Nc2ccc(C(F)(F)F)c(Cl)c2)c1C(=O)N1C[C@@H](F)[C@H](F)C1 (relative stereo)	DRD3	β-arrestin recruitment, antagonist			IC50	2.9 µM
